Results collected from several papers.
Lines come from different studies, so protocols differ.
Cell line: HepG2

COc1cc(-c2nc3ccc(C(=O)NCCCN(C)C)cc3n2C2CCC2)cc(OC)c1OC
viability (CellTiter-Glo; up to 100 µM, 24 h): not toxic

CCOC(=O)c1cn(-c2nc(C(F)(F)F)n[nH]2)nn1
viability (cell growth or viability, MTT; 500 µM, 72 h): 84.3%

CC(=O)O[C@@H]1CC[C@@]2(C)C(CC[C@]3(C)C2C(=O)C=C2C4[C@@H](C)[C@H](C)CC[C@]4(C)CC[C@]23C)[C@@]1(C)C(=O)N/N=C\c1ccccc1 (stereo partly drawn)
viability (cell growth or viability, MTT; 25 µM, 24 h): 92%

CCn1cc(-c2ccnc(Nc3ccc(N4CCNCC4)cc3)n2)c(-c2cccnc2)n1
viability (cell growth or viability; 30 µM): 82%

COc1cc([C@@H]2OC[C@@H]3[C@H]2CO[C@H]3c2cc(OC)c(O)c(OC)c2)cc(OC)c1O
viability (cell growth or viability, CCK-8; 40 µM, 24 h): 76.2%

CC(=O)O[C@@H]1CC[C@@]2(C)C(CC[C@]3(C)C2C(=O)C=C2C4[C@@H](C)[C@H](C)CC[C@]4(C)CC[C@]23C)[C@@]1(C)C(=O)N/N=C\c1ccc2c(c1)OCO2 (stereo partly drawn)
viability (cell growth or viability, MTT; 25 µM, 24 h): 88%

CC1=CC(OC(=O)c2ccccc2)C2(COC(=O)c3ccccc3)CCC(=C(C)C)C2C(O)CC2(C)OC2CC1 (stereo not drawn)
viability (cell growth or viability, CCK-8; 20 µM, 24 h): 93.9%

CCN(c1nc(N[C@H](CC(N)=O)C(=O)NC)nc(N2CCN(c3ccccc3C#N)CC2)n1)C1CCCCC1
viability (cell growth or viability, resazurin; 50 µM, 72 h): > 95%

CC(C)=CCc1c(O)cc(CO)cc1O
viability (cell growth or viability, CCK-8; 10 µM, 24 h): 96.6%

NCC1OC(OC2C(N)CC(N)C(OC3OC(CO)C(O)C(N)C3O)C2OCCCCn2cc(CNc3nc(NCc4cn(CCCCOC5C(OC6OC(CN)C(O)CC6N)C(N)CC(N)C5OC5OC(CO)C(O)C(N)C5O)nn4)nc(NCc4cn(CCCCOC5C(OC6OC(CN)C(O)CC6N)C(N)CC(N)C5OC5OC(CO)C(O)C(N)C5O)nn4)n3)nn2)C(N)CC1O (stereo not drawn)
viability (cell growth or viability, resazurin; 27 µM, 48 h): 88%

COc1cc(/C=N\NC(=O)[C@]2(C)C3CC[C@]4(C)C(C(=O)C=C5C6[C@@H](C)[C@H](C)CC[C@]6(C)CC[C@]54C)[C@@]3(C)CC[C@H]2OC(C)=O)cc(OC)c1OC (stereo partly drawn)
viability (cell growth or viability, MTT; 25 µM, 24 h): 87%

CC(C)=CCc1c(O)cc2c(c1O)C(=O)OC2
viability (cell growth or viability, CCK-8; 10 µM, 24 h): 94.5%

Repeated from above:
COc1cc([C@@H]2OC[C@@H]3[C@H]2CO[C@H]3c2cc(OC)c(O)c(OC)c2)cc(OC)c1O
viability (cell growth or viability, CCK-8; 40 µM, 24 h): 76.2%
